Results gathered from unrelated publications.
Each numbered part is a random draw from the data of one study; scales do not carry over between parts. Substitutions count along the parent as printed.

Sample 1
Target: Histone acetyltransferase KAT6A, winged helix 1, GST fusion (KAT6A, Homo sapiens, UniProt Q92794, residues 1-85)
Technique: protein binding microarray
Molecule type: double-stranded DNA, one strand shown
Matrix: in vitro
Concentration: not given
Notes: 8-mer, flanks averaged, mean of 2 arrays, mostly near background
Reference: not given
Direction: higher = stronger binding
Quantity: E-score
Construct (chain): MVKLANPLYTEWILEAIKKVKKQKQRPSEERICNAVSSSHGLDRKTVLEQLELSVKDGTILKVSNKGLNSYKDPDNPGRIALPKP
AAGTGATA: -0.218
TCAATACA: -0.145
CGACTCCG: 0.253
CTGCGTTC: -0.0728
ATACGTAC: 0.0129
AGCTAGTA: -0.106
AGACCACG: -0.147
CCTGACGA: -0.234
ACGCTGGG: 0.06
ACTGCGGC: 0.318
AGTGCGAG: -0.155
CGTCACAG: 0.0223

Sample 2
Target: Interferon regulatory factor 3, full length, phosphomimetic (IRF3, Homo sapiens, UniProt Q14653, residues 1-427, S386D/S396D/S398D/S402D/T404D/S405D)
Sequence of UniProt Q14653 (whole entry, unmodified, looked up): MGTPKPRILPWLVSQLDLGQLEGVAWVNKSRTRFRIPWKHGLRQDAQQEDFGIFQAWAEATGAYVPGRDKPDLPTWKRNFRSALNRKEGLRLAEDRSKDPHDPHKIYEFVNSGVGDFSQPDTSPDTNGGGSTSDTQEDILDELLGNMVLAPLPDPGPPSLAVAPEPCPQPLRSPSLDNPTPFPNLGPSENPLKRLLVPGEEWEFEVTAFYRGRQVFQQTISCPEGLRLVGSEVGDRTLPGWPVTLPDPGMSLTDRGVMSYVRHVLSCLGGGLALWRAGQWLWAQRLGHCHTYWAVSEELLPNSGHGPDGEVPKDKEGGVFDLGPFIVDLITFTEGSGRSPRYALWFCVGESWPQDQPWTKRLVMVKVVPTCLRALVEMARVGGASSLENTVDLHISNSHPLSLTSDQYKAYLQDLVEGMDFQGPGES
Technique: protein-binding microarray
Molecule type: double-stranded DNA, one strand shown
Matrix: in vitro
Concentration: 2540 nM top
Notes: 60-bp whole probe
Together with: salmon DNA 0.4 mg/ml
Reference: random background probes
Direction: higher = stronger binding
Quantity: fitted relative affinity
Constant ends, left off below: GCCTAGCAC … GTCTTGATTCGCTTGACGCTGCTG
GACGGTTTCGGTCTGGGGACGTGCTAG: 7.06 z-score
TCAATTTTCGGGTAGATGACTGTGCTA: 0.983 z-score
GCCGATCTCAGTATCGAGACGTGCTAG: 2.37 z-score
GACGGACTGCTTTCCCTGACGTGCTAG: 0.48 z-score
TTAGGTCTCGTTTTCCTTTAGTGCTAG: 3.5 z-score
GACGGTCTCGGAGTGGGGACGTGCTAG: 0.042 z-score
TCAGAGATTTTTCTCAAACTGTGCTAG: -0.0724 z-score
GACGAACTGGGGTATCGTGACGTGCTA: -0.394 z-score
GACGGTTTCGGTATCGGTACGTGCTAG: 8.67 z-score

Sample 3
Target: CCNA1, cyclin fold, Cln2 fusion (human)
Technique: yeast growth competition, sequencing
Matrix: yeast
Notes: weak parent motif
Reference: not given
Direction: higher = stronger binding
Quantity: normalised enrichment score
Starting sequence: PKN2 docking peptide (human); VSAVRKLDFSDTM
VSAVRKDDFSDTM [L7D]: 0.0253
VSAVRKLDFSDGM [T12G]: 0.762
VSAVRKLYFSDTM [D8Y]: 0.139
VSAVGKLDFSDTM [R5G]: -0.342
VSAKRKLDFSDTM [V4K]: 1.46
VSAVRKLDFLDTM [S10L]: 0.456
VPAVRKLDFSDTM [S2P]: 0.493

Other studies, line by line
PhoQ, residues 284 288 289 292 302 303 GLASVI
fold induction (PhoP, residues 12 14 15 18 19 TQAIL (Escherichia coli, UniProt P23836); Sort-seq, refers to: YFP reporter; E. coli; PhoQ-PhoP variant library, together with: 10 µM Mg2+; reference: high Mg2+ state, higher = stronger signaling): 21

Repeated from above (sample 2):
TCAGAGATTTTTCTCAAACTGTGCTAG: -0.0724 z-score
GCCGATCTCAGTATCGAGACGTGCTAG: 2.37 z-score
GACGGTTTCGGTCTGGGGACGTGCTAG: 7.06 z-score
GACGGTCTCGGAGTGGGGACGTGCTAG: 0.042 z-score
